# Published values pooled from the literature.
# Method: steady-state kinetics
# B1: BKGD (Homo sapiens, UniProt Q9H0W9); chain MACAEFSFHVPSLEELAGVMQKGLKDNFADVQVSVVDCPDLTKEPFTFPVKGICGKTRIAEVGGVPYLLPLVNQKKVYDLNKIAKEIKLPGAFILGAGAGPFQTLGFNSEFMPVIQTESEHKPPVNGSYFAHVNPADGGCLLEKYSEKCHDFQCALLANLFASEGQPGKVIEVKAKRRTGPLNFVTCMRETLEKHYGNKPIGMGGTFIIQKGKVKSHIMPAEFSSCPLNSDEEVNKWLHFYEMKAPLVCLPVFVSRDPGFDLRLEHTHFFSRHGEGGHYHYDTTPDIVEYLGYFLPAEFLYRIDQPKETHSIGRD
# B2: ycjS (Escherichia coli, UniProt P77503); chain MKSAMTSSPLRVAIIGAGQVADKVHASYYCTRNDLELVAVCDSRLSQAQALAEKYGNASVWDDPQAMLLAVKPDVVSVCSPNRFHYEHTLMALEAGCHVMCEKPPAMTPEQAREMCDTARKLGKVLAYDFHHRFALDTQQLREQVTNGVLGEIYVTTARALRRCGVPGWGVFTNKELQGGGPLIDIGIHMLDAAMYVLGFPAVKSVNAHSFQKIGTQKSCGQFGEWDPATYSVEDSLFGTIEFHNGGILWLETSFALNIREQSIMNVSFCGDKAGATLFPAHIYTDNNGELMTLMQREIADDNRHLRSMEAFINHVQGKPVMIADAEQGYIIQQLVAALYQSAETGTRVEL
# B3: enzyme (Arabidopsis thaliana, UniProt Q9STE6); chain MEKNAEKKRIVLVPFPLQGHITPMMQLGQALNLKGFSITVALGDSNRVSSTQHFPGFQFVTIPETIPLSQHEALGVVEFVVTLNKTSETSFKDCIAHLLLQHGNDIACIIYDELMYFSEATAKDLRIPSVIFTTGSATNHVCSCILSKLNAEKFLIDMKDPEVQNMVVENLHPLKYKDLPTSGMGPLERFLEICAEVVNKRTASAVIINTSSCLESSSLSWLKQELSIPVYPLGPLHITTSANFSLLEEDRSCIEWLNKQKLRSVIYISVGSIAHMETKEVLEMAWGLYNSNQPFLWVIRPGTESMPVEVSKIVSERGCIVKWAPQNEVLVHPAVGGFWSHCGWNSTLESIVEGVPMICRPFNGEQKLNAMYIESVWRVGVLLQGEVERGCVERAVKRLIVDDEGVGMRERALVLKEKLNASVRSGGSSYNALDELVHYLEAEYRNT
# B4: protein Y93W (Thermus thermophilus, UniProt Q5SKR5); chain MSAPKPFVIGIAGGTASGKTTLAQALARTLGERVALLPMDHYYKDLGHLPLEERLRVNYDHPDAFDLALYLEHAQALLRGLPVEMPVYDFRAWTRSPRRTPVRPAPVVILEGILVLYPKELRDLMDLKVFVDADADERFIRRLKRDVLERGRSLEGVVAQYLEQVKPMHLHFVEPTKRYADVIVPRGGQNPVALEMLAAKALARLARMGAA
# B5: enzyme A178R/D177A/P184R (Levilactobacillus brevis, UniProt Q03Q85); chain MKVTVVGCTHAGTFAIKQILAEHPDAEVTVYERNDVISFLSCGIALYLGGKVADPQGLFYSSPEELQKLGANVQMNHNVLAIDPDQKTVTVEDLTNHAQTTESYDKLVMTSGSWPIVPKIPGIDSDRVKLCKNWAHAQALIEDAKEAKRITVIGAGYIGAELAEAYSTTGHDVTLIARMARVMRKYFDADFTDVIEQDYRDHGVQLALGETVESFTDSATGLTIKTDKNSYETDLAILCIGFRPNTDLLKGKVDMAPNGAIITDDYMRSSNPDIFAAGDSAAVHYNPTHQNAYIPLATNAVRQGILVGKNLVKPTVKYMGTQSSSGLALYDRTIVSTGLTLAAAKQQGLNAEQVIVEDNYRPEFMPSTEPVLMSLVFDPDTHRILGGALMSKYDVSQSANTLSVCIQNENTIDDLAMVDMLFQPNFDRPFNYLNILAQAAQAKVAQSVNA
# B6: enzyme (Tetranychus urticae, UniProt T1KUK4); chain MNPETMNENGKSLKILFTALFGPGHLNACLGIGSLLRKRGHQIYFAHFPRHRATIEKHGFLFISLLDYAEPEFPIVDMLPDIGIIAKFAFERMHKLTPLELFRHASGKHTFAGMVNGSKGENYAMMKIVKEYKPDVCLADYLFNMPWMFTVDCPVIPVKSVNPIELYNGPPALTGCSIHDPPSVREEIEQLARKSELELESELEKLFAHFNVPLVSYNYAQQLGIYIYPGPLDYKELGSPKENWVRLDSSIRSTEISNFELPEKLKDKPGKLIYVSMGSLASAVTELLTMILTPLANSPHRFIVSTGPNGDSIKLYDNMWGDKFINQVALLPKVDLFITHGGSNSLIEGLTAGKPLIAIPQFGDQLDNAQRIADLGLGVRLNLHEFSGEKLLKAIEDVLNDEKINANVARVSEELKKSDSKDKVISLIEKLARDKKL
# B7: mtnK (Escherichia coli, UniProt B7MMH5); chain MTDSIPSGYKPLTCDTLPGYLSSRLTPSCEPGGLPEEWKVSEVGDGNLNMVFIVEGTHKTIIVKQALPWLRAGGEGWPLSLSRAGFEYNVLCQEAKYAGHTLIPQVYFYDPEMALFAMEYLTPHVILRKELINGKKFPKLAEDIGRFLAQTLFNTSDIGMSAEQKKALTAEFALNHELCKITEDLIFTEPYYNAERNNWTSPELDDAVHKAWADVEMIQVAMRYKYKFMTEAQALLHGDLHSGSIMVTDTDTKVIDPEFGFMGPMAFDIGNYIGNLLLAYFSRPGWDANEQRRADYQEWLLQQIVQTWSVFTREFRQLWDNKTQGDAWSTEMYQQNRAALEDAQDQFFATLLEDSLVNAGMEMNRRIIGFAGVAELKQIENTELRAGCERRALTMARDLIVNARQFKNMDSVIQSAKVK
# B8: tsaM1 F253S/H255G/M230N/R216A/S234V/S257H (Comamonas testosteroni, UniProt P94679); chain MFIRNCWYVAAWDTEIPAEGLFHRTLLNEPVLLYRDTQGRVVALENRCCHRSAPLHIGRQEGDCVRCLYHGLKFNPSGACVEIPGQEQIPPKTCIKSYPVVERNRLVWIWMGDPARANPDDIVDYFWHDSPEWRMKPGYIHYQANYKLIVDNLLDFTHLAWVHPTTLGTDSAASLKPVIERDTTGTGKLTITRWYLNDDMSNLHKGVAKFEGKADAWQIYQWSPPALLRNDTGVAPTGTGAPEGRRVPEAVQSRGTHIQTPETETTSHYWFCQARNFDLDDEALTEKIYQGVVVAFEEDRTMIEAHEKILSQVPDRPMVPIAADAGLNQGRWLLDRLLKAENGGTAP
# B9: FNO G29W (Thermobifida fusca, UniProt Q47RA9); chain MIMIMASKSSPHDLPDVSGLSIAVLGGTWDQGRGLARRFAMAGHEVILGSRSAERAQAVAAELGEGLPVRGMDNAGAAEAGDVVIVAVPWDGHRALLESLKDVLAGKIVVDCVNPLGFDKRGAYALPVEEGSAAEQAAAILPDSRVVAAFHHVSAVLLLDPEVEKVDLDVLVLGDDREATDVVRALAARIPGVRGVYGGRLRNAHQVEAFTANLISINRRYKAHAGIRITDI
# B10: enzyme (Pseudomonas aeruginosa, UniProt Q51366); chain MTRSALVTGITGQDGAYLAKLLLEKGYRVHGLVARRSSDTRWRLRELGIEGDIQYEDGDMADACSVQRAVIKAQPQEVYNLAAQSFVGASWNQPVTTGVVDGLGVTHLLEAIRQFSPETRFYQASTSEMFGLIQAERQDENTPFYPRSPYGVAKLYGHWITVNYRESFGLHASSGILFNHESPLRGIEFVTRKVTDAVARIKLGKQQELRLGNVDAKRDWGFAGDYVEAMWLMLQQDKADDYVVATGVTTTVRDMCQIAFEHVGLDYRDFLKIDPAFFRPAEVDVLLGNPAKAQRVLGWKPRTSLDELIRMMVEADLRRVSRE
# B11: HGXPRT (Trypanosoma cruzi, UniProt Q4DRC3); chain MISSQQAMVHVVSRNAEGVIVVDGKAYPMAEELVATESVIQRSIKAVAKQIADFYRPLSHRDTHGGGGVAPISDENPLIIISVLKGSYIFTADMVRYLGDYGLPHVVDFLRVASYRGTSSTNKMKLLAETQFKALRGKHVLILEDIVDSGKTLRYILDKVQREHQPATLKVCVLADKPGGRRVTMQPDFVCLTVPNKYVIGYGFEVNDRFRCFRHIFTLRPGEARRYPAHL
# B12: PTR1 (Leishmania major, UniProt Q01782); chain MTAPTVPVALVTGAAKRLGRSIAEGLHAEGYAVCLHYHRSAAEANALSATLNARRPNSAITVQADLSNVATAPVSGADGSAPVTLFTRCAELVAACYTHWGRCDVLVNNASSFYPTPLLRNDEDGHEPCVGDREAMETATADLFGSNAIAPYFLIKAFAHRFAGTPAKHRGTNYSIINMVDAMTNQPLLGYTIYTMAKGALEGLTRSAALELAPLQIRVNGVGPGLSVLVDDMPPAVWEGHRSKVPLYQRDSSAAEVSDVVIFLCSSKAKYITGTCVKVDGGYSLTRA
Substance,substrate,pH,temperature,setting,with,Km
B1 (BKGD),O=C(O)[C@@H](O)C(=O)[C@H](O)[C@@H](O)CO,,37 °C,,,20.2 µM
B2 (ycjS),CO[C@@H]1O[C@H](CO)[C@@H](O)[C@H](O)[C@H]1O,pH 8,30 °C,,NAD+ 2.0 mM,2000 µM
B3 (enzyme),CC(=O)N[C@H]1[C@@H](OP(=O)(O)OP(=O)(O)OC[C@H]2O[C@@H](n3ccc(=O)[nH]c3=O)[C@H](O)[C@@H]2O)O[C@H](CO)[C@@H](O)[C@@H]1O,pH 7.5,25 °C,,,0.78 µM
B4 (protein Y93W),Nc1ccn([C@@H]2O[C@H](CO)[C@@H](O)[C@H]2O)c(=O)n1,pH 7.2,25 °C,KCl 100 mM,ATP 100–200 µM,71 µM
"MCAT (Homo sapiens, UniProt Q8IVS2)",CC(C)(COP(=O)(O)OP(=O)(O)OC[C@H]1O[C@@H](n2cnc3c(N)ncnc32)[C@H](O)[C@@H]1OP(=O)(O)O)[C@@H](O)C(=O)NCCC(=O)NCCSC(=O)CC(=O)O,pH 6.8,20 °C,labelled substrate,holo-ACP 20 µM,3.1 µM
B5 (enzyme A178R/D177A/P184R),NC(=O)C1=CN([C@@H]2O[C@H](COP(=O)(O)OP(=O)(O)OC[C@H]3O[C@@H](n4cnc5c(N)ncnc54)[C@H](OP(=O)(O)O)[C@@H]3O)[C@@H](O)[C@H]2O)C=CC1,pH 7.5,37 °C,,,61 µM
B6 (enzyme),O=c1ccn([C@@H]2O[C@H](CO[P@@](=O)(O)O[P@@](=O)(O)O[C@H]3O[C@H](CO)[C@@H](O)[C@H](O)[C@H]3O)[C@@H](O)[C@H]2O)c(=O)[nH]1,pH 7.8,,,,47 µM
"enzyme (Deinococcus radiodurans, UniProt P56926)",NC(=O)CC[C@H](N)C(=O)O,pH 7.2,37 °C,,,186 µM
B7 (mtnK),Nc1ncnc2c1ncn2[C@@H]1O[C@H](COP(=O)(O)OP(=O)(O)OP(=O)(O)O)[C@@H](O)[C@H]1O,pH 7.8,30 °C,,5-deoxyribose,83 µM
B8,COc1cc(C(=O)O)ccc1O,,,apparent,NADH 1 mM,13 µM
"UGT3A2 (Homo sapiens, UniProt Q3SY77)",O=c1ccn([C@@H]2O[C@H](COP(=O)(O)OP(=O)(O)O[C@H]3OC[C@@H](O)[C@H](O)[C@H]3O)[C@@H](O)[C@H]2O)c(=O)[nH]1,pH 7.4,37 °C,not purified,"1-OH-pyrene 16 µM, MgCl2 10 mM, alamethicin",728 µM
B9 (FNO G29W),NC(=O)c1ccc[n+](Cc2ccccc2)c1,pH 8,25 °C,,F420H2 40 µM,4300 µM
B10 (enzyme),Nc1nc2c(ncn2[C@@H]2O[C@H](COP(=O)(O)OP(=O)(O)O[C@H]3O[C@H](CO)[C@@H](O)[C@H](O)[C@@H]3O)[C@@H](O)[C@H]2O)c(=O)[nH]1,,37 °C,,,14 µM
B11 (HGXPRT),O=P(O)(O)OC[C@H]1O[C@H](OP(=O)(O)OP(=O)(O)O)[C@H](O)[C@@H]1O,pH 8.3,37 °C,apparent,guanine,1.1 µM
"protein (Streptomyces toyocaensis, UniProt Q8KLK7)",CC(C)(COP(=O)(O)OP(=O)(O)OC[C@H]1O[C@@H](n2cnc3c(N)ncnc32)[C@H](O)[C@@H]1OP(=O)(O)O)[C@@H](O)C(=O)NCCC(=O)NCCSC(=O)Cc1cc(O)cc(O)c1,pH 7.5,24 °C,,O2,2.3 µM
"RAD30 (Saccharomyces cerevisiae, UniProt Q04049)",Cc1cn([C@H]2C[C@H](O)[C@@H](COP(=O)(O)OP(=O)(O)OP(=O)(O)O)O2)c(=O)[nH]c1=O,pH 7.5,room temperature,"apparent Km, apparent",dG 10 nM primer-template,18 µM
B12 (PTR1),C[C@H](O)[C@H](O)C1=Nc2c(nc(N)[nH]c2=O)NC1,pH 7.4,25 °C,apparent,,3.32 µM

# A few entries again:
Substance,substrate,pH,temperature,setting,with,Km
"enzyme (Deinococcus radiodurans, UniProt P56926)",NC(=O)CC[C@H](N)C(=O)O,pH 7.2,37 °C,,,186 µM
B7 (mtnK),Nc1ncnc2c1ncn2[C@@H]1O[C@H](COP(=O)(O)OP(=O)(O)OP(=O)(O)O)[C@@H](O)[C@H]1O,pH 7.8,30 °C,,5-deoxyribose,83 µM
B8,COc1cc(C(=O)O)ccc1O,,,apparent,NADH 1 mM,13 µM
